# Assay results of several laboratories.
# Protocols differ between the studies behind these lines.
# Organism: Staphylococcus aureus
Structure (SMILES),assay,system,setting,MIC
CCCC[C@H](NC(=O)[C@H](Cc1ccc(O)cc1)NC(=O)[C@@H]1CCCN1C(=O)[C@@H]1CCCN1C(=O)[C@H](CCCCN)NC(=O)[C@H](CC(=O)O)NC(=O)[C@@H](N)C(C)C)C(=O)N1CCC[C@H]1C(=O)N[C@@H](CCCNC(=N)N)C(=O)N1CCC[C@H]1C(=O)N[C@@H](CCCNC(=N)N)C(=O)N1CCC[C@H]1C(=O)N1CCC[C@H]1C(=O)N[C@@H](CCCNC(=N)N)C(=O)N[C@H](CCCNC(=N)N)C(=O)N[C@H](C(=O)N[C@@H](Cc1ccc(O)cc1)C(=O)N[C@@H](CC(N)=O)C(=O)N[C@H](CCCNC(=N)N)C(N)=O)[C@@H](C)CC,broth microdilution,DSM 6247,"18 h, 37 °C, 25% MHB2",> 128 µg/mL
CC(C)C[C@@H]1NC(=O)[C@H](CCCCN)NC(=O)CNC(=O)[C@H]2CCCN2C(=O)[C@H](CCCCN)NC(=O)[C@H](CC(C)C)NC(=O)[C@H](CCCCN)NC(=O)[C@H](CC(C)C)NC(=O)[C@H](CCCCN)NC(=O)C(N)CCC=CCCC(C(N)=O)NC(=O)[C@H](CCCCN)NC(=O)[C@H](CC(C)C)NC(=O)[C@H](CCCCN)NC1=O (stereo partly shown),broth microdilution,"ATCC 29737, Mueller-Hinton broth","18 h, 37 °C",64 µM
CN[C@@H]1[C@H](O)[C@H](NC)[C@H]2O[C@]3(O)[C@H](O[C@@H]2[C@H]1O)O[C@H](C)C[C@H]3NC(=O)Cc1ccccn1,"microbial growth, broth dilution",8325,,50 µg/mL
CC(C)[C@H](NC(=O)[C@H](Cc1ccc(O)cc1)NC(=O)[C@H](CS)NC(=O)[C@@H](NC(=O)[C@H](CCCNC(=N)N)NC(=O)[C@H](Cc1ccccc1)NC(=O)[C@H](CS)NC(=O)[C@H](Cc1c[nH]c2ccccc12)NC(=O)[C@@H](N)CCCNC(=N)N)C(C)C)C(=O)NCC(=O)N[C@@H](Cc1ccccc1)C(=O)N[C@@H](CS)C(=O)N[C@@H](Cc1ccc(O)cc1)C(=O)N[C@@H](Cc1c[nH]c2ccccc12)C(=O)N[C@@H](CCCCN)C(=O)N[C@@H](CS)C(=O)N[C@@H](CCCNC(=N)N)C(=O)O,broth microdilution,"ATCC 29213, Mueller-Hinton broth","16 to 20 h, 37 °C",8.79 µg/mL
O=C(c1ccccc1O)c1[nH]c(Cl)c(Cl)c1-n1c(C(=O)c2ccccc2O)cc(Cl)c1Cl,microbial growth,BAA44 MRSA,,1.33 µM
CN[C@H](CC(C)C)C(=O)N[C@H]1C(=O)N[C@@H](CC(N)=O)C(=O)N[C@H]2C(=O)N[C@H]3C(=O)N[C@H](C(=O)N[C@H](C(=O)O)c4cc(O)cc(O)c4-c4cc3ccc4O)[C@H](O)c3ccc(c(Cl)c3)Oc3cc2cc(c3O[C@@H]2O[C@H](CO)[C@@H](O)[C@H](O)[C@H]2O[C@H]2C[C@](C)(NCc3ccc(OCc4cn(CC(=O)N[C@H](C(=O)N[C@@H](CCN)C(=O)N[C@H]5CCNC(=O)[C@H]([C@@H](C)O)NC(=O)[C@H](CCN)NC(=O)[C@H](CCN)NC(=O)[C@H](CC(C)C)NC(=O)[C@@H](CC(C)C)NC(=O)[C@H](CCN)NC5=O)[C@@H](C)O)nn4)c(OC)c3)[C@H](O)[C@H](C)O2)Oc2ccc(cc2Cl)[C@H]1O,,MSSA ATCC 29213,,0.095 µM
Cc1ccc2[nH]c3c(c2c1)CCCC3NCCc1ccc(O)cc1 (stereo not shown),broth microdilution,HG001,,16 µg/mL
CC(=O)N[C@@H](CC(C)C)C(=O)N[C@H]1CSSC[C@@H](C(=O)N2CCC[C@H]2C(N)=O)NC(=O)[C@H]([C@@H](C)O)NC(=O)[C@H](C(C)C)NC(=O)[C@H]([C@@H](C)O)NC(=O)CNC(=O)[C@H](CC(C)C)NC(=O)[C@H](Cc2ccccc2)NC(=O)[C@H](Cc2ccc(O)cc2)NC(=O)[C@H](CC(C)C)NC(=O)[C@H](CCCCN)NC(=O)[C@H](Cc2ccccc2)NC(=O)[C@H](CCCNC(=N)N)NC(=O)[C@H](CCC(N)=O)NC(=O)[C@H](CC(C)C)NC(=O)[C@H](CCCCN)NC(=O)[C@@H]2CCCN2C(=O)[C@H](CCCCN)NC(=O)[C@H](C(C)C)NC(=O)[C@H](CC(N)=O)NC(=O)[C@H](Cc2ccc(O)cc2)NC(=O)[C@H]([C@@H](C)O)NC1=O,broth dilution,laboratory strain,24 h,5 to 10 µM
COc1c(NC(=O)c2ccc(NC(=O)c3ccc(NC(=O)[C@H](CC#N)NC(=O)c4ccc(NC(=O)/C(C)=C/c5ccc(O)cc5)cc4)cc3)c(OC)c2O)ccc(C(=O)O)c1O,broth microdilution,ciprofloxacin-resistant,,4 µg/mL
CN[C@H](CC(C)C)C(=O)N[C@H]1C(=O)N[C@@H](CC(N)=O)C(=O)N[C@H]2C(=O)N[C@H]3C(=O)N[C@H](C(=O)N[C@H](C(=O)O)c4cc(O)cc(O)c4-c4cc3ccc4O)[C@H](O)c3ccc(c(Cl)c3)Oc3cc2cc(c3O[C@@H]2O[C@H](CO)[C@@H](O)[C@H](O)[C@H]2O[C@H]2C[C@](C)(NCc3ccc(OCc4cn(CCCCC(=O)N[C@H](C(=O)N[C@@H](CCN)C(=O)N[C@H]5CCNC(=O)[C@H]([C@@H](C)O)NC(=O)[C@H](CCN)NC(=O)[C@H](CCN)NC(=O)[C@H](CC(C)C)NC(=O)[C@@H](CC(C)C)NC(=O)[C@H](CCN)NC5=O)[C@@H](C)O)nn4)c(OC)c3)[C@H](O)[C@H](C)O2)Oc2ccc(cc2Cl)[C@H]1O,,NRS402 VISA,,0.75 µM
CC(C)C[C@@H](NC(=O)[C@@H](CCCNC(=N)N)NC(=O)[C@H](N)CCCNC(=N)N)C(=O)N[C@H](CC(C)C)C(=O)N[C@H](CCCNC(=N)N)C(=O)N[C@H](CCCCN)C(=O)N[C@H](CC(C)C)C(=O)N[C@H](CCCCN)C(=O)NCC(=O)N[C@H](CCCCN)C(=O)N[C@H](CCCCN)C(=O)N[C@H](CC(C)C)C(=O)N[C@H](Cc1ccc(O)cc1)C(=O)N[C@H](CC(C)C)C(=O)N[C@H](Cc1ccc(O)cc1)C(=O)N[C@H](Cc1ccccc1)C(=O)N[C@H](CCCCN)C(=O)N[C@H](CC(C)C)C(=O)N[C@H](CCC(N)=O)C(=O)N[C@H](CC(C)C)C(=O)N[C@H](CC(C)C)C(=O)N[C@H](CCCCN)C(=O)N[C@H](CCCCN)C(N)=O,,"KCTC 1621, Mueller-Hinton broth",with: 150 mM NaCl,32 µM
N=C(N)NCCC[C@@H]1NC(=O)[C@H](CCCNC(=N)N)NC(=O)[C@@H](CCCNC(=N)N)NC(=O)[C@H](C(c2ccccc2)c2ccccc2)NC(=O)[C@H](C(c2ccccc2)c2ccccc2)NC(=O)[C@H](C(c2ccccc2)c2ccccc2)NC(=O)[C@H](CCCNC(=N)N)NC1=O,,"1195201, multidrug-resistant",,4 µg/mL
CC[C@H](C)[C@H](N)C(=O)N[C@@H](C)C(=O)N[C@@H](CC(C)C)C(=O)N[C@H](CCC(=O)O)C(=O)N[C@H](C(=O)N[C@H]1CCCCNC(=O)[C@H](CC(N)=O)NC(=O)[C@@H](CC(=O)O)NC(=O)[C@H](Cc2c[nH]cn2)NC(=O)[C@@H](Cc2ccccc2)NC(=O)[C@H]([C@@H](C)CC)NC(=O)[C@@H](CCCN)NC1=O)[C@@H](C)CC,,ATCC 29213 methicillin-susceptible,"18 h, 37 °C, 0.3 mM ZnSO4 LB",> 64 µg/mL
CC[C@@](C)(NC)C(=O)NC(C)(C)C(=O)NC(C)(C)C(=O)NC(C)(C)C(=O)NCC(=O)NC(C)(C)C(=O)N1CCC[C@@H]1C(=O)N[C@@H](Cc1c[nH]c2ccccc12)C(=O)NC(C)(C)C(=O)N1C[C@H](O)C[C@@H]1C(=O)N[C@@H](C)C(=O)NC(C)(C)C(=O)NCCCC(=O)N[C@@H](CC(C)C)C(=O)N[C@](C)(CC)C(=O)NC(C)(C)C(=O)N[C@](C)(CC)C(=O)N[C@H](CO)Cc1ccccc1,broth microdilution,ATCC 29213,,2 µg/mL
CC[C@H](C)[C@H](NC(=O)[C@H](CCCNC(=N)N)NC(=O)[C@H](Cc1c[nH]c2ccccc12)NC(=O)[C@H](Cc1c[nH]c2ccccc12)NC(=O)[C@H](CCCNC(=N)N)NC(=O)[C@@H](N)CCCNC(=N)N)C(=O)N[C@@H](Cc1c[nH]c2ccccc12)C(N)=O,,6538,,8 µg/mL
CN[C@H](CC(C)C)C(=O)N[C@H]1C(=O)N[C@@H](CC(N)=O)C(=O)N[C@H]2C(=O)N[C@H]3C(=O)N[C@H](C(=O)N[C@H](C(=O)NCc4cn(CCCCC(=O)N[C@H](C(=O)N[C@@H](CCN)C(=O)N[C@H]5CCNC(=O)[C@H]([C@@H](C)O)NC(=O)[C@H](CCN)NC(=O)[C@H](CCN)NC(=O)[C@H](CC(C)C)NC(=O)[C@@H](CC(C)C)NC(=O)[C@H](CCN)NC5=O)[C@@H](C)O)nn4)c4cc(O)cc(O)c4-c4cc3ccc4O)[C@H](O)c3ccc(c(Cl)c3)Oc3cc2cc(c3O[C@@H]2O[C@H](CO)[C@@H](O)[C@H](O)[C@H]2O[C@H]2C[C@](C)(N)[C@H](O)[C@H](C)O2)Oc2ccc(cc2Cl)[C@H]1O,,MRSA USA300,,0.098 µM
CC[C@H](C)[C@@H]1NC(=O)[C@H](CO)NC(=O)C(C)(CCCCN)NC(=O)[C@@H]2CSSC[C@@H](C(=O)N[C@@H](Cc3ccc(O)cc3)C(N)=O)NC(=O)[C@H](CCCCN)NC(=O)[C@@H]3CSSC[C@H](NC(=O)[C@H](CCCNC(=N)N)NC(=O)C(C)(CC(C)C)NC(=O)[C@H](CC(=O)O)NC(=O)[C@H](CC(=O)O)NC(=O)[C@H](CCC(=O)O)NC(=O)[C@H](CC(N)=O)NC(=O)[C@H](Cc4c[nH]c5ccccc45)NC(=O)[C@@H]4CCCN4C(=O)CNC(=O)[C@H](CC(N)=O)NC(=O)[C@@H](NC(=O)CNC(=O)[C@H](Cc4ccccc4)NC(=O)CN)CSSC[C@H](NC(=O)[C@H](Cc4ccc(O)cc4)NC(=O)CNC(=O)CNC(=O)[C@H](CCCCN)NC(=O)[C@H](Cc4ccc(O)cc4)NC(=O)CNC(=O)[C@H](CCCCN)NC1=O)C(=O)N[C@@H](C)C(=O)N[C@@H](CCCCN)C(=O)NCC(=O)NCC(=O)N[C@@H](Cc1ccccc1)C(=O)N[C@@H](C(C)C)C(=O)N3)C(=O)N[C@@H](Cc1c[nH]cn1)C(=O)NC(C)(C)C(=O)N[C@@H](Cc1c[nH]cn1)C(=O)N2 (stereo partly shown),broth microdilution,USA300 MRSA,18 h,1 µM
CC[C@H](C)[C@H](NC(=O)[C@@H](CCCNC(=N)N)NC(=O)[C@H](CCCNC(=N)N)NC(=O)[C@@H]1CCCN1C(=O)[C@@H]1CCCN1C(=O)[C@H](CCCNC(=N)N)NC(=O)[C@@H]1CCCN1C(=O)[C@H](CCCNC(=N)N)NC(=O)[C@@H]1CCCN1C(=O)[C@H](CC(C)C)NC(=O)[C@H](Cc1cc(I)c(O)c(I)c1)NC(=O)[C@@H]1CCCN1C(=O)[C@@H]1CCCN1C(=O)[C@H](CCCCN)NC(=O)[C@H](CC(=O)O)NC(=O)[C@@H](N)C(C)C)C(=O)N[C@@H](Cc1ccc(O)cc1)C(=O)N[C@@H](CC(N)=O)C(=O)N[C@H](CCCNC(=N)N)C(N)=O,broth microdilution,DSM 6247,"18 h, 37 °C, 25% MHB2",128 µg/mL
COc1ccc2ccc(O)c(/C=N/[C@H]3CCCC[C@H]3/N=C/c3cccc(F)c3O)c2c1,"bacterial growth, broth microdilution",vancomycin-intermediate,,> 40 µM

# A few entries again:
Structure (SMILES),assay,system,setting,MIC
CC[C@H](C)[C@H](N)C(=O)N[C@@H](C)C(=O)N[C@@H](CC(C)C)C(=O)N[C@H](CCC(=O)O)C(=O)N[C@H](C(=O)N[C@H]1CCCCNC(=O)[C@H](CC(N)=O)NC(=O)[C@@H](CC(=O)O)NC(=O)[C@H](Cc2c[nH]cn2)NC(=O)[C@@H](Cc2ccccc2)NC(=O)[C@H]([C@@H](C)CC)NC(=O)[C@@H](CCCN)NC1=O)[C@@H](C)CC,,ATCC 29213 methicillin-susceptible,"18 h, 37 °C, 0.3 mM ZnSO4 LB",> 64 µg/mL
N=C(N)NCCC[C@@H]1NC(=O)[C@H](CCCNC(=N)N)NC(=O)[C@@H](CCCNC(=N)N)NC(=O)[C@H](C(c2ccccc2)c2ccccc2)NC(=O)[C@H](C(c2ccccc2)c2ccccc2)NC(=O)[C@H](C(c2ccccc2)c2ccccc2)NC(=O)[C@H](CCCNC(=N)N)NC1=O,,"1195201, multidrug-resistant",,4 µg/mL
